Results pooled from the literature.
Numbers after ± are the reported error.

SMILES | target or system | assay | system | setting | how to read | quantity | result
CN1CCCNC(=O)c2cccc(c2)C(=O)NCCCN(C)CCCNc2cccc3c2C(=O)c2cccc(c2C3=O)NCCC1 | SAS | RNA-Seq, item: ICE1 mRNA |  | 1 µM, 6 h | baseline: untreated cells | log2 fold change | -1.33
C[n+]1cccc2cc(/C=N/NC(=O)c3cncc(C(=O)N/N=C/c4ccc5c(ccc[n+]5C)c4)n3)ccc21 | myc22 MYC G4-DNA parallel | FRET melting |  | 1 µM, K1 buffer, DNA 0.2 µM, together with: ds26 10 µM |  | ΔTm | 18.9 ± 0.4 °C
COc1ccc2cc3[n+](cc2c1OCCCOC(=O)c1cscn1)CCc1cc2c(cc1-3)OCO2 |  |  | C57BL/6 mice, high-fat diet | oral gavage, 40 mg/kg daily, 14 weeks | baseline: HFD control | plasma triglyceride reduction | 38.7%
C=C(NC(=O)c1csc(-c2nc3c(cc2O)-c2nc(cs2)C(=O)NC(C(C)O)C(=O)NC(=C(C)OC)c2nc(cs2)C(=O)NC2c4nc(cs4)C(=O)NC(COC(=O)c4c5c6c(cccc6n4O)COC(=O)C(OC4CC(C)(O)C(N(C)C)C(C)O4)C2OC5)c2nc-3cs2)n1)C(N)=O (stereo not drawn) | Streptococcus pneumoniae |  | -4, immunocompromised mice, lung infection, lung | 4 mg/kg/day once daily, 24 h post-dose |  | bacterial load | 6.78 log CFU/g
Cc1ncsc1-c1ccc(C(C)NC(=O)C2CC(O)CN2C(=O)C(NC(=O)CCCCCCCCCCN2CCCC(Nc3ncc(Cl)c(Nc4ccccc4S(=O)(=O)C(C)C)n3)C2)C(C)(C)C)cc1 (stereo not drawn) | 22Rv1 | RNA-seq, item: SPSB1 mRNA |  | concentration not given | baseline: DMSO | log2 fold change | -1.9
COC1CN([C@H]2CC[C@H]([C@@]3(C)Oc4c(Cl)cc(C(=O)NCc5c(SC)cc(C)[nH]c5=O)c(C)c4O3)CC2)C1 |  | RNA-seq, item: MPV17L mouse homolog | mouse, HT-1376 xenograft, whole blood | dose not given | baseline: vehicle | log2 fold change | 1.01
CCN(C(=O)c1cc(F)ccc1Oc1nncnc1N1CCC2(C1)CN([C@H](CCCN(C)CCOC)C(C)C)C2)C(C)C | Calu-6 | cell growth or viability |  | 72 h |  | GI50 | > 10000 nM
O=C(N/N=C/c1ccc2c(ccc[n+]2Cc2ccccc2)c1)c1ccc2ccc(C(=O)N/N=C/c3ccc4c(ccc[n+]4Cc4ccccc4)c3)nc2n1 | myc22 MYC G4-DNA parallel | FRET melting |  | 1 µM, K1 buffer, DNA 0.2 µM |  | ΔTm | 15.7 ± 1.4 °C
C=CC(=O)N1[C@H](c2ccc3c(c2)OCO3)c2[nH]c3ccccc3c2C[C@@H]1C(=O)N1CCN(C)CC1 | human cyclin E1 N112C-3xFLAG:CDK2 | co-IP with TMT proteomics, item: HNRNPH1 |  | concentration not given, P31943 | baseline: wild type DMSO | relative co-enrichment | 154%
CC(C)c1ccc(N(C)c2ccc3c(c2)OCC[C@H]3CNc2cnccc2C(=O)O)cc1 | WSUDLCL2 | cell growth or viability, ATP luminescence |  | 7 days |  | IC50 | 5.67 nM
C[n+]1cc(/C=N/NC(=O)C(=O)N/N=C/c2cc3ccccc3[n+](C)c2)cc2ccccc21 | myc22 MYC G4-DNA parallel | FRET melting |  | 1 µM, K1 buffer, DNA 0.2 µM |  | ΔTm | 3.4 ± 0.5 °C
C=CC(=O)Nc1cccc(Cn2ncc3cnc(Nc4cnn(CCOC)c4)nc32)c1 | STK36 human | binding, KINOMEscan |  | 100 nM | lower = stronger binding | percent of control | 94%
O=C(N/N=C/c1ccc2c(ccc[n+]2Cc2ccccc2)c1)c1cccc(C(=O)N/N=C/c2ccc3c(ccc[n+]3Cc3ccccc3)c2)c1 | myc22 MYC G4-DNA parallel | FRET melting |  | 1 µM, K1 buffer, DNA 0.2 µM |  | ΔTm | 11.5 ± 0.3 °C
CCN(CC)CC(=O)Nc1cccc(-n2cc(-c3ccc4ccc(-c5cn(-c6cccc(NC(=O)CN(CC)CC)c6)nn5)cc4c3)nn2)c1 | RCC4 | PCR angiogenesis array, item: HPSE |  | 5 x IC50, 4 h, normoxia | baseline: untreated | fold regulation | -1.37
CC(O)CNCC(C)O.O=C(O)C(Cl)Cl (stereo not drawn) | Eclipta prostrata |  |  | 15 mg/mL, 21 days, pre-emergence, greenhouse |  | herbicidal inhibition | 0%
Nc1ncc(-c2cc(-c3cnn(CC(F)(F)F)c3)ncc2F)nc1C(=O)NC1CNCC(F)C1 (stereo not drawn) | TLK2 | KINOMEscan |  | 1 µM | baseline: DMSO control | remaining binding | 78%
O=C(N/N=C/c1cc[n+](Cc2ccccc2)c2ccccc12)c1cc(C(=O)N/N=C/c2cc[n+](Cc3ccccc3)c3ccccc23)ncn1 | myc22 MYC G4-DNA parallel | FRET melting |  | 1 µM, K1 buffer, DNA 0.2 µM |  | ΔTm | 8.3 ± 0.1 °C
CNS(=O)(=O)Nc1nccc(Cc2c(C)c3ccc(Oc4ncccc4F)cc3oc2=O)c1F | NCI-H211 | cell viability |  | 7 days |  | IC50 | > 1000 nM
C[n+]1ccc(/C=N/NC(=O)c2cccc(C(=O)N/N=C/c3cc[n+](C)c4ccccc34)n2)c2ccccc21 | myc22 MYC G4-DNA parallel | FRET melting |  | 1 µM, K1 buffer, DNA 0.2 µM |  | ΔTm | 25.9 ± 0.3 °C
NCCOCCO.O=C(O)C(Cl)Cl | Eclipta prostrata |  |  | 15 mg/mL, 21 days, post-emergence, greenhouse |  | herbicidal inhibition | 0%
C[n+]1cc(/C=N/NC(=O)c2cccc(C(=O)N/N=C/c3cc4ccccc4[n+](C)c3)n2)cc2ccccc21 | myc22 MYC G4-DNA parallel | FRET melting |  | 1 µM, K1 buffer, DNA 0.2 µM |  | ΔTm | 19.1 ± 0.1 °C
c1ccc(-c2n[nH]cc2-c2ccnc3ccccc23)nc1 | GCN2 (Candida albicans) | kinase binding, MIB/MS competition | Candida albicans lysate | 10 µM | baseline: DMSO | log2 fold change | -0.14
O=C(N/N=C/c1cc[n+](Cc2ccccc2)c2ccccc12)c1cccc(C(=O)N/N=C/c2cc[n+](Cc3ccccc3)c3ccccc23)c1 | myc22 MYC G4-DNA parallel | FRET melting |  | 1 µM, K1 buffer, DNA 0.2 µM |  | ΔTm | 8.1 ± 0.2 °C
COc1cc(O)ccc1CCC(c1ccc(O)cc1)c1cc2c(c(C)c1O)OC(c1ccc(O)cc1)CC2 (mixture of isomers) |  | item: LTB4 | human whole blood | 0.3 µM, together with: Escherichia coli |  | amount | 5560 ± 2080 pg/mL blood

A few entries again:
SMILES | target or system | assay | system | setting | how to read | quantity | result
CCN(C(=O)c1cc(F)ccc1Oc1nncnc1N1CCC2(C1)CN([C@H](CCCN(C)CCOC)C(C)C)C2)C(C)C | Calu-6 | cell growth or viability |  | 72 h |  | GI50 | > 10000 nM
